Measurements of several laboratories.
Compare with care: the assays were run in different laboratories. Values joined by “and” are separate records of one study, mostly repeats; a detail may differ. Numbers after ± are the reported error.
IDE: Insulin-degrading enzyme (IDE, Homo sapiens, UniProt P14735)

Cc1[nH]c(C)c(-c2ccc(CCc3ccc(N)cc3)cc2)c(=O)c1Cl
IC50 (Plasmodium yoelii; 17XL; 384-well): 450 ± 27 nM

Oc1ccccc1-c1n[nH]cc1-c1ccnc2ccccc12
log2 fold change (GCN2 (Candida albicans); kinase binding, MIB/MS competition; Candida albicans lysate; 10 µM; reference: DMSO): -0.25

C[C@H]1O[C@@H](O[C@H]2CC[C@@]3(C)[C@@H](CC[C@]4(C)[C@@H]3C=C[C@]35OC[C@@]6(CCC(C)(C)C[C@H]63)[C@@H](O)C[C@]54C)[C@]2(C)CO)[C@H](O)[C@@H](O[C@@H]2O[C@H](CO)[C@@H](O)[C@H](O)[C@H]2O)[C@H]1O
protein level (Western blot, item: PPARα; chronic-plus-binge ethanol-fed mice, liver; dose not given, medium dose, unit not given; reference: β-actin): 0.814 and 0.601 and 0.785

COc1ccc(CCc2ccc(-c3c(C)[nH]c(C)c(Cl)c3=O)cc2)cc1
IC50 (Plasmodium yoelii; 17XL; 384-well): 149 ± 49 nM

CC(C)NCC(O)c1ccc(O)c(O)c1 (stereo not shown)
sarcomere length (ventricular cardiomyocytes, C57BL/6 mouse; dose not given, 0.12 s): 1.69 µm

Cc1cc(Nc2ccc(S(F)(F)(F)(F)F)cc2)n2nc(C(C)(F)F)nc2n1
patients with QTcB increase (Plasmodium vivax; 12-lead ECG; malaria patients; oral, 600 mg, increase above 60 ms): 0%

Cc1ccccc1-c1ccc([C@@H]2[C@@H](CO)N3C(=O)CN(C(=O)Cc4ccccn4)C[C@@H]23)cc1
EC50 (IDE; enzyme activity, inhibitor, fluorogenic kinetic; together with: Mca-RPPGFSAFK(Dnp)-OH substrate): 2700 nM

O=C(O)CNC(=O)Cc1ccccc1
sarcomere length (ventricular cardiomyocytes, C57BL/6 mouse; dose not given, 0.204 s): 1.62 µm

Cc1ccccc1-c1ccc([C@@H]2[C@@H](CO)N3CCCCN(C(=O)c4cccnc4)C[C@@H]23)cc1
EC50 (IDE; enzyme activity, inhibitor, fluorogenic kinetic; together with: Mca-RPPGFSAFK(Dnp)-OH substrate): 13000 nM

c1coc(-c2n[nH]cc2-c2ccnc3ccccc23)c1
log2 fold change (ENV7 (Candida albicans); kinase binding, MIB/MS competition; Candida albicans lysate; 1 µM; reference: DMSO): -0.21

OC(CCN1CCCCC1)(c1ccccc1)C1CC2C=CC1C2 (stereo not shown)
delta power change, EEG, in Pz-O1 (resting-state EEG; healthy elderly humans; oral, 4 mg, eyes open, LS mean; reference: baseline): 46.9%

Cc1cc(=O)c2cc(-c3ccc(OC(F)(F)F)cc3)ccc2[nH]1
IC50 (Plasmodium yoelii; 17XL; 384-well): 1910 ± 264 nM

NC(=O)c1cnc2[nH]ccc2c1N[C@@H]1[C@@H]2CC3C[C@H]1C[C@@](O)(C3)C2
CD4+CD28+ naive T-cell change (flow cytometry; Japanese healthy men, blood; oral, 100 mg twice daily, 72 h after day 7 dose; reference: baseline): -4.82%

Some of these lines once more:
c1coc(-c2n[nH]cc2-c2ccnc3ccccc23)c1
log2 fold change (ENV7 (Candida albicans); kinase binding, MIB/MS competition; Candida albicans lysate; 1 µM; reference: DMSO): -0.21

Cc1cc(=O)c2cc(-c3ccc(OC(F)(F)F)cc3)ccc2[nH]1
IC50 (Plasmodium yoelii; 17XL; 384-well): 1910 ± 264 nM
